Measured values gathered from unrelated publications.
Each numbered part is a random draw from the data of one study; scales do not carry over between parts.
Chain of UniProt P31751 (whole entry, looked up): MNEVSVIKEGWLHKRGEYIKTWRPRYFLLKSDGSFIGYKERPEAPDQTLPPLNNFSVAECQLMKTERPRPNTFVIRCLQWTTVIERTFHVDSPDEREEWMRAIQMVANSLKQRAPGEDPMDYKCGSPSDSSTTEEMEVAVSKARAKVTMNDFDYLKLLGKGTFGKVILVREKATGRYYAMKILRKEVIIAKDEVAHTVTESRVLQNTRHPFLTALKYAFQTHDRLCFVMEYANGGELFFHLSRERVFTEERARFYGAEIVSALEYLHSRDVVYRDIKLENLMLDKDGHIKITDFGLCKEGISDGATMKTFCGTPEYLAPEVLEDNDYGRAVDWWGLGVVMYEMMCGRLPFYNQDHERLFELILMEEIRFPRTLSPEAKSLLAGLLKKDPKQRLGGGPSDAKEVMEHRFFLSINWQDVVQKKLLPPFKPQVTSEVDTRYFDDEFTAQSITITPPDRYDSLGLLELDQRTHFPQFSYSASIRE
Chain of UniProt P42681 (whole entry, looked up): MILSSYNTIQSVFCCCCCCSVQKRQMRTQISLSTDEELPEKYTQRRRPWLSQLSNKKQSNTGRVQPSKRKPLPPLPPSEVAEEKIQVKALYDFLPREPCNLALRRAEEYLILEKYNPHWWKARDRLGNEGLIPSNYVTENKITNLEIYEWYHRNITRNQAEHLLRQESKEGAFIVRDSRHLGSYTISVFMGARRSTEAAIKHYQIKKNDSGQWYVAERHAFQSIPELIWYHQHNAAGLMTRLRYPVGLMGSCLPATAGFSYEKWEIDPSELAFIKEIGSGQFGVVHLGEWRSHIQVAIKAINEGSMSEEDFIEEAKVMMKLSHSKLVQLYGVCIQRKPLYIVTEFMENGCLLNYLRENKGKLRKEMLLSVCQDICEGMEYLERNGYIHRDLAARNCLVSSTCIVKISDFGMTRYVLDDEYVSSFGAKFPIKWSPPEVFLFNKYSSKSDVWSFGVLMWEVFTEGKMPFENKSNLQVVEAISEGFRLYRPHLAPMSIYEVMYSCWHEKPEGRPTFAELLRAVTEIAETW
Chain of UniProt P35968 (whole entry, looked up): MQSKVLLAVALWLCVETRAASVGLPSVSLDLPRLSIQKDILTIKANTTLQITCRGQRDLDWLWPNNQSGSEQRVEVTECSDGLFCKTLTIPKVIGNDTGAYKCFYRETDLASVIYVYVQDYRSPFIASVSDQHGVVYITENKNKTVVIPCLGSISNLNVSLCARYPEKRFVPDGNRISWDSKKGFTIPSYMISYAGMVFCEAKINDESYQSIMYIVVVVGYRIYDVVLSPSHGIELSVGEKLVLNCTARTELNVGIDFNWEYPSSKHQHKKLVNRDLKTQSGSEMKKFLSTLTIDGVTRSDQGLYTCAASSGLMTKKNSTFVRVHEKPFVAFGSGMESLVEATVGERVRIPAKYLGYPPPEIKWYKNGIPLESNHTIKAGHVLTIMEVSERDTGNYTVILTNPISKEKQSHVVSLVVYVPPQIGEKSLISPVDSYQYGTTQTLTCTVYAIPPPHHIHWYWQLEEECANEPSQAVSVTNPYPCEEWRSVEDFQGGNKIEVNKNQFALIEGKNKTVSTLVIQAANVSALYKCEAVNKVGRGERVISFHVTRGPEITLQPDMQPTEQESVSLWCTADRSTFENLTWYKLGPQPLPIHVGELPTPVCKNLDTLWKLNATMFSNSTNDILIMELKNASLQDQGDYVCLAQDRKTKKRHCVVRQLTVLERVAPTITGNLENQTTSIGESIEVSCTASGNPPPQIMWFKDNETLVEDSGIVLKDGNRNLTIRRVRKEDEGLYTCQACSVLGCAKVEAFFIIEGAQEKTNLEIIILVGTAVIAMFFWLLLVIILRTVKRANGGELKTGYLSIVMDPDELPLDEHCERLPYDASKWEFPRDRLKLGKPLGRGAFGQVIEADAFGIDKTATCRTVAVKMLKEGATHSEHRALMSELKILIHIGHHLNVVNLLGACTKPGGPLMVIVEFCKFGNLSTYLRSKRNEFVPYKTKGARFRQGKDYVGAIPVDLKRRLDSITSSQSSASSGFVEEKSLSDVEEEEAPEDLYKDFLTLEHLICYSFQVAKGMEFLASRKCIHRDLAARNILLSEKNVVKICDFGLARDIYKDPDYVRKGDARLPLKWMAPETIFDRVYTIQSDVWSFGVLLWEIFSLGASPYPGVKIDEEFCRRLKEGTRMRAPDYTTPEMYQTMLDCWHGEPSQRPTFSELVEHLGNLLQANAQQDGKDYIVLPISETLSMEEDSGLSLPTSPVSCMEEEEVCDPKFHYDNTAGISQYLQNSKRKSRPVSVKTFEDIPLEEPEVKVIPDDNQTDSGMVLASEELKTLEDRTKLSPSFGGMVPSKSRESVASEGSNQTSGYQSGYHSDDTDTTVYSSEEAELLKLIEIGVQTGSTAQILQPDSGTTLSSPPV
Chain of UniProt Q86YV6 (whole entry, looked up): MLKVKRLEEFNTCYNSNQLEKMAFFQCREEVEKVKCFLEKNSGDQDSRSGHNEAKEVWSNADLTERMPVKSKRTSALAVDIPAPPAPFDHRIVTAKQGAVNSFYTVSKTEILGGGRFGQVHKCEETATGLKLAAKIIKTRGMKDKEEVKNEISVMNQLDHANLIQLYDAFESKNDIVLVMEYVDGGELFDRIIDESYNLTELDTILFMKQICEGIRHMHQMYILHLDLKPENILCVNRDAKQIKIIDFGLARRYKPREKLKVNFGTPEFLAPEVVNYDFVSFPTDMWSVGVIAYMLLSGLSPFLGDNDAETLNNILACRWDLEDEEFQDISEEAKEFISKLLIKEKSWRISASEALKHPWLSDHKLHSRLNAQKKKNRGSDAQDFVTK
Chain of UniProt Q13464 (whole entry, looked up): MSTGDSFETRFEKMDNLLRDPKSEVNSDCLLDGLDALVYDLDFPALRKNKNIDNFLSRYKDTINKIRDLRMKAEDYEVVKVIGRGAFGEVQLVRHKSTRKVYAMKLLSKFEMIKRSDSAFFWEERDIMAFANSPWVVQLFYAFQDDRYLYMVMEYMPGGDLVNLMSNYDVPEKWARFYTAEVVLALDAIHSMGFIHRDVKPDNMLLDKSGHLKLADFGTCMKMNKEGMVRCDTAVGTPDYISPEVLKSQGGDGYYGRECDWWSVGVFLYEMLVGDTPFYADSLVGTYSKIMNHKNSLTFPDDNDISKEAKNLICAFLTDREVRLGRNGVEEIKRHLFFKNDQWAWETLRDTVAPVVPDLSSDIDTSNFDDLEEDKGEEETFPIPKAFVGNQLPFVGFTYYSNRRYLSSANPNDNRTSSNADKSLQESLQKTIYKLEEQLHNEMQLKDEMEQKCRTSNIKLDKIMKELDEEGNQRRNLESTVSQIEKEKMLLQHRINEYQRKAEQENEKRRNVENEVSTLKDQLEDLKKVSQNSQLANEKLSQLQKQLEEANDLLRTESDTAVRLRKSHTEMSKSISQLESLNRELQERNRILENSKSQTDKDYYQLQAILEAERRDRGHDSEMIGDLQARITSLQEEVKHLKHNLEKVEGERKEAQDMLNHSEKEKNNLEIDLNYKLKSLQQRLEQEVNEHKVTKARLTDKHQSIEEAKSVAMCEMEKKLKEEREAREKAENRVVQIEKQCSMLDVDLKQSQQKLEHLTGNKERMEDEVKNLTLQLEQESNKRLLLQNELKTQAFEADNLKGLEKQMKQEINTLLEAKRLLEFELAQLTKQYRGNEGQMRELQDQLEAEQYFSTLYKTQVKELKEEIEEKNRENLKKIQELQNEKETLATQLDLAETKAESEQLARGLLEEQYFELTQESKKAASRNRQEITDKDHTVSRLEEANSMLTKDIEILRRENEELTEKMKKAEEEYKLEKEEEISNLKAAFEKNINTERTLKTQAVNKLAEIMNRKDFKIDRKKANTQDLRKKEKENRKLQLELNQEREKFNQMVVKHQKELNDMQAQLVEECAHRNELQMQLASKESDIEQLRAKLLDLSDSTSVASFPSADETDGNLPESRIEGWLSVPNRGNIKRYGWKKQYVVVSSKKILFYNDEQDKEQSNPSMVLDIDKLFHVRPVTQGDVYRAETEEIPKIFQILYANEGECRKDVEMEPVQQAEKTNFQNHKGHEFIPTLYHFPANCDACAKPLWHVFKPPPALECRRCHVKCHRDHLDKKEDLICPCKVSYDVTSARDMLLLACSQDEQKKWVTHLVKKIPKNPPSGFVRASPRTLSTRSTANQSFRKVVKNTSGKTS
Chain of UniProt P50750 (whole entry, looked up): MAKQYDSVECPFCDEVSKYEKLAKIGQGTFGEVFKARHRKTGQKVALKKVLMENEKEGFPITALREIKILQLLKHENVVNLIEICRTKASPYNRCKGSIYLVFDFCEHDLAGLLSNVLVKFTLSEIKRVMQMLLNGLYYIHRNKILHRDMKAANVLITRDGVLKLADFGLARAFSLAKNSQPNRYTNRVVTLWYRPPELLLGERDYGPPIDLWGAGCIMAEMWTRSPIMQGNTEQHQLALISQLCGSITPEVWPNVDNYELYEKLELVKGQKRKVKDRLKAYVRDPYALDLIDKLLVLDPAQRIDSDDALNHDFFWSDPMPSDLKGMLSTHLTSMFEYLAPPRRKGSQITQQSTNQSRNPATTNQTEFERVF
Chain of UniProt P51956 (whole entry, looked up): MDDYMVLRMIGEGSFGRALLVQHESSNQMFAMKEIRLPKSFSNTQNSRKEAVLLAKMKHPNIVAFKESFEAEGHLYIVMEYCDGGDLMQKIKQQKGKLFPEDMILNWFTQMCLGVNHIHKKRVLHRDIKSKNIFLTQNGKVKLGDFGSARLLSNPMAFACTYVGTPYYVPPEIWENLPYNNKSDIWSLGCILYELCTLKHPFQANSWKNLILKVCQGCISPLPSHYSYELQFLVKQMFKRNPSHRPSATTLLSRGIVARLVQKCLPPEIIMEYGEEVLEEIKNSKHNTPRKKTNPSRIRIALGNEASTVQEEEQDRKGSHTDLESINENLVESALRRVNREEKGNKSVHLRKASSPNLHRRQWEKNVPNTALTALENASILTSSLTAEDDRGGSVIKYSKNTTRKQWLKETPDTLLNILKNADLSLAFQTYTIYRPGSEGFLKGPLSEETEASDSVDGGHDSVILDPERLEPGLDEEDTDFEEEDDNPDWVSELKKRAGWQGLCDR

Set 1 — read-out: enzyme activity; action: inhibitor; tested at: 0.5 µM; baseline: control
SMILES: c1ccc(-c2cnc(Nc3ccc(OCCN4CCCC4)cc3)s2)cc1
CDC42BPB (Homo sapiens, UniProt Q9Y5S2) — remaining activity: 96.7%.
It gave 98.3% for remaining activity (GRK4 (Homo sapiens, UniProt P32298)).
It gave 96.1% for remaining activity (RPS6KA4 (Homo sapiens, UniProt O75676)).
KDR (Homo sapiens, UniProt P35968) — remaining activity: 76.1%.
It gave 99.8% for remaining activity (PNCK (Homo sapiens, UniProt Q6P2M8)).
TXK (Homo sapiens, UniProt P42681) — remaining activity: 91.1%.
Cyclin-dependent kinase 9, with cyclin K (CDK9, Homo sapiens, UniProt P50750) — remaining activity: 39.8%.
The remaining activity was 99.1% (PAK3 (Homo sapiens, UniProt O75914)).
The remaining activity was 92.4% (AKT2 (Homo sapiens, UniProt P31751)).
It gave 58.9% for remaining activity (MARK4 (Homo sapiens, UniProt Q96L34)).
For CLK3 (Homo sapiens, UniProt P49761): remaining activity read 94.3%.
It gave 86.6% for remaining activity (DDR2 (Homo sapiens, UniProt Q16832)).
For NEK3 (Homo sapiens, UniProt P51956): remaining activity read 92.9%.
For MAPK1 (Homo sapiens, UniProt P28482): remaining activity read 83.4%.
For MET (Homo sapiens, UniProt P08581): remaining activity read 89.7%.
MAPK14 (Homo sapiens, UniProt Q16539) — remaining activity: 103%.
It gave 97.2% for remaining activity (CAMK4 (Homo sapiens, UniProt Q16566)).
The remaining activity was 102% (ROCK1 (Homo sapiens, UniProt Q13464)).
PRKG2 (Homo sapiens, UniProt Q13237) — remaining activity: 106%.
It gave 96.9% for remaining activity (MAP2K1 (Homo sapiens, UniProt Q02750)).
The remaining activity was 38.7% (MINK1 (Homo sapiens, UniProt Q8N4C8)).
MARK2 (Homo sapiens, UniProt Q7KZI7) — remaining activity: 88%.
For Cyclin-dependent kinase 1, with cyclin A (CDK1, Homo sapiens, UniProt P06493): remaining activity read 95.2%.
For CLK4 (Homo sapiens, UniProt Q9HAZ1): remaining activity read 97.9%.

Set 2 — cell line: HaCaT; tested at: 100 µM; time: 18 h
The viability of COc1ccc(CN(CCN(C)C)c2ccccn2)cc1 is reported as 100%.
Cc1cn([C@H]2O[C@@H](CO)[C@H](O)[C@H]2F)c(=O)[nH]c1=O gave a viability of 99.4%.
Nc1cc(F)ccc1NC(=O)c1ccc(CNC(=O)/C=C/c2cccnc2)cc1 has a viability of 40.3%.
With CC(C)(C)c1ccc(C(O)CCCN2CCC(C(O)(c3ccccc3)c3ccccc3)CC2)cc1 (stereo not drawn) the viability was 25.7%.
For CC1=C(C(=O)OC(C)C)C(c2cccc([N+](=O)[O-])c2)C(C(=O)OC2CN(C(c3ccccc3)c3ccccc3)C2)=C(N)N1 (stereo not drawn), the viability was 20%.
CC(C)[C@H](NC(=O)[C@H](CC(=O)O)NC(=O)[C@H](CCCCN)NC(=O)[C@@H](N)CCCN=C(N)N)C(=O)N[C@@H](Cc1ccc(O)cc1)C(=O)O gave a viability of 110%.
CCCCC(CC)COC(=O)CC(C(=O)OCC(CC)CCCC)S(=O)(=O)O (stereo not drawn) has a viability of 38.2%.
For CCCNC(C)C(=O)Nc1ccccc1C (stereo not drawn), the viability was 110%.

Set 3 — technique: competition with immobilised ligand; tested at: 1 µM
Structure (SMILES): CN(C)C(=O)Cn1cc(-c2nc([C@@](C)(c3ccc(-c4cnc(N)nc4)cc3)C3CC3)no2)cn1
It gave 89% for remaining binding (NEK5 (Homo sapiens, UniProt Q6P3R8); cell-free assay).
The remaining binding was 88% (STK32C (Homo sapiens, UniProt Q86UX6); cell-free assay).
The remaining binding was 90% (SRC (Homo sapiens, UniProt P12931); cell-free assay).
CSNK1D (Homo sapiens, UniProt P48730); cell-free assay — remaining binding: 96%.
For MAP3K6 (Homo sapiens, UniProt O95382); cell-free assay: remaining binding read 90%.
For TTK (Homo sapiens, UniProt P33981); cell-free assay: remaining binding read 100%.
MYLK4 (Homo sapiens, UniProt Q86YV6); cell-free assay — remaining binding: 100%.
For HCK (Homo sapiens, UniProt P08631); cell-free assay: remaining binding read 79%.
Ribosomal protein S6 kinase alpha-6, C-terminal kinase domain (RPS6KA6, Homo sapiens, UniProt Q9UK32); cell-free assay — remaining binding: 100%.
GSK3B (Homo sapiens, UniProt P49841); cell-free assay — remaining binding: 100%.
BMP2K (Homo sapiens, UniProt Q9NSY1); cell-free assay — remaining binding: 100%.
Non-receptor tyrosine-protein kinase TYK2, JH1 (TYK2, Homo sapiens, UniProt P29597); cell-free assay — remaining binding: 75%.
For EGFR (Homo sapiens, UniProt P00533, L858R); cell-free assay: remaining binding read 100%.
It gave 82% for remaining binding (Receptor-type tyrosine-protein kinase FLT3, autoinhibited (FLT3, Homo sapiens, UniProt P36888); cell-free assay).
It gave 87% for remaining binding (SBK1 (Homo sapiens, UniProt Q52WX2); cell-free assay).
The remaining binding was 84% (AKT2 (Homo sapiens, UniProt P31751); cell-free assay).
It gave 96% for remaining binding (TXK (Homo sapiens, UniProt P42681); binding).
WEE1 (Homo sapiens, UniProt P30291); cell-free assay — remaining binding: 94%.

Other studies, line by line
CC(=O)N[C@@H](Cc1c[nH]c2ccccc12)C(=O)N[C@@H](CCC(=O)C=[N+]=[N-])C(=O)OC(C)C — result for “GI histopathology sum score”: 0 (C57BL/6 CES1-/- mouse, gastrointestinal tissue; subcutaneous, 0.8 mg/kg, scale 0-6 per slide; direction not given).

Repeated from above (set 1):
KDR (Homo sapiens, UniProt P35968) — remaining activity: 76.1%.
MAPK14 (Homo sapiens, UniProt Q16539) — remaining activity: 103%.
CDC42BPB (Homo sapiens, UniProt Q9Y5S2) — remaining activity: 96.7%.
It gave 98.3% for remaining activity (GRK4 (Homo sapiens, UniProt P32298)).
MARK2 (Homo sapiens, UniProt Q7KZI7) — remaining activity: 88%.
The remaining activity was 99.1% (PAK3 (Homo sapiens, UniProt O75914)).
